Results from different studies.
Lines come from different studies, so protocols differ. ± gives the spread as reported.
Cell line: HeLa

COc1cccc(CNC[C@@](O)(COCc2ccccc2)[C@@H]2CC[C@@H](C)C[C@H]2OCc2ccccc2)c1  IC50 (cell growth or viability, MTT; 72 h): 4.63 µM
CNS(=O)(=O)Nc1nccc(Cc2c(C)c3ccc(Oc4ncccc4F)cc3oc2=O)c1F  IC50 (cell viability; 7 days): > 1 µM
CCC(=CCc1c(O)cc2c(c1O)C(=O)CC(c1ccccc1O)O2)CC (centres unmarked)  IC50 (cell growth or viability, MTT; 48 h): 36.2 µM
Cc1c(COc2cc(OCc3cccc(C#N)c3)c(CN3CCCC[C@H]3C(=O)O)cc2Cl)cccc1-c1cccc(OCCCCCC(=O)NO)c1  IC50 (cell growth or viability, CCK-8; 48 h): 17 µM
CCC(=CCc1c(O)cc2c(c1O)C(=O)CC(c1ccc(O)cc1OC)O2)CC (centres unmarked)  IC50 (cell growth or viability, MTT; 48 h): 21.2 µM
COc1ccc(CNC[C@@](O)(COCc2ccc(OC)cc2)[C@@H]2CC[C@@H](C)C[C@H]2OCc2ccc(OC)cc2)cc1  IC50 (cell growth or viability, MTT; 72 h): 3.52 µM
O=[C]=[Mn-2]12(=[C]=O)(=[C]=O)[O]c3cc4c(cc3=[N+]1CCc1ccccc1)[O][Mn-2](=[C]=O)(=[C]=O)(=[C]=O)([N+]=4CCc1ccccc1)[n+]1ccc(cc1)C(=O)Nc1ccccc1NC(=O)c1cc[n+]2cc1  IC50 (cell growth, MTT; 48 h, LED photolysed 1 h): 2.51 ± 0.36 µM
O=C(/C=C/c1ccccc1)Nc1cc(-c2ccnc(N3CCC(CO)CC3)c2)ccn1  IC50 (cell growth or viability, MTT; 72 h): 0.0664 µM
Cc1ccc(-c2ccc(C)cn2)nc1  IC50 (cell growth or viability, MTT; 48 h): > 50 µM
COc1cccc(N2C(=O)CS/C2=N\N=C\c2cccc3cc4ccccc4nc23)c1  IC50 (cell growth or viability, MTT; 48 h): 14.8 µM
Cc1c(COc2cc(OCc3cccc(C#N)c3)c(CN3CCCC[C@H]3C(=O)O)cc2Cl)cccc1-c1cccc(OCCCCCCC(=O)NO)c1  IC50 (cell growth or viability, CCK-8; 48 h): > 20 µM
COc1ccc(N2C(=O)CS/C2=N\N=C\c2cccc3cc4ccccc4nc23)cc1  IC50 (cell growth or viability, MTT; 48 h): 17.9 µM
CCN(CC)CCOC(=O)c1ccc(NC2OC(CO)C(O)C(O)C2O)cc1 (centres unmarked)  IC50 (cell growth or viability): > 10 µM
C[n+]1c(/C=C/c2ccc(N(c3ccccc3)c3ccccc3)cc2)cc(/C=C2\Sc3ccccc3N2CCCN2CCCC2)c2ccccc21  IC50 (cell growth or viability, MTT; 36 h): 6.24 µM
CCCN1C(=O)/C(=C/C(=O)OCC)S/C1=N\N=C\c1cccc2cc3ccccc3nc12  IC50 (cell growth or viability, MTT; 48 h): 33.3 µM
Cc1ccc(-c2ccc(C)cn2)nc1.[Co+2].[O-]c1c(I)cc(Cl)c2cccnc12.[O-]c1c(I)cc(Cl)c2cccnc12  IC50 (cell growth or viability, MTT; 48 h): 8.47 µM
CCOC(=O)/C=C1\S/C(=N\N=C\c2cccc3cc4ccccc4nc23)N(c2ccccc2)C1=O  IC50 (cell growth or viability, MTT; 48 h): 31.9 µM
CCC(=CCc1c(O)cc2c(c1O)C(=O)CC(c1cccc(O)c1OC)O2)CC (centres unmarked)  IC50 (cell growth or viability, MTT; 48 h): 26.9 µM
COc1ccnc(-c2cc(OC)ccn2)c1.Cc1ccc2c(Cl)cc(Cl)c([O-])c2n1.Cc1ccc2c(Cl)cc(Cl)c([O-])c2n1.[Co+2]  IC50 (cell growth or viability, MTT; 48 h): 3.06 µM
CNC(=O)C1CCCN(C(=O)C2CC3CCC2N3C(=O)[C@@H]2C[C@@H](O)CN2C(=O)NCc2cccc(Cl)c2F)C1 (mixture of isomers)  IC50 (cell growth or viability, CCK-8; 72 h): 0.45 µM
CC(=O)[O][Pt]([NH2])([NH2])([Cl])([Cl])[O]C(=O)CCC(C)C1CCC2C3CCC4CC(O)CCC4(C)C3CCC12C (centres unmarked)  IC50 (cell growth or viability, MTT; 72 h): 3.7 µM
COc1ccc(CNC[C@@](O)(COCc2ccc(F)cc2)[C@@H]2CC[C@@H](C)C[C@H]2OCc2ccc(F)cc2)cc1  IC50 (cell growth or viability, MTT; 72 h): 1.58 µM
O=C(Nc1cc(OCCN2CCCC2)c2ccccc2n1)c1cccc(C(=O)Nc2cc(OCCN3CCCC3)c3ccccc3n2)n1  IC50 (cell growth or viability, ATP luminescence; 72 h): 3 µM
NC(=O)c1nccn([C@@H]2O[C@H](CO)[C@@H](O)[C@H]2O)c1=O  IC50 (cell growth or viability): > 10 µM
O=[C]=[Mn-2]12(=[C]=O)(=[C]=O)[O]c3cc4c(cc3=[N+]1CCc1ccccc1)[O][Mn-2](=[C]=O)(=[C]=O)(=[C]=O)([N+]=4CCc1ccccc1)[n+]1ccc(cc1)C(=O)OCCOC(=O)c1cc[n+]2cc1  IC50 (cell growth, MTT; 48 h, LED photolysed 1 h): 17.3 ± 1.14 µM
O=C(NCCOCCNC(=O)c1cc2ccccc2c2ccccc12)c1cc(C(=O)N2CCNCCNCCNCC2)c(O)c(C(=O)N2CCNCCNCCNCC2)c1  IC50 (cell growth or viability, MTT; 24 h): > 1000 µM
Cc1c(COc2cc(OCc3cccc(C#N)c3)c(CNC(C)(CO)CO)cc2Cl)cccc1-c1cccc(OCCCCCC(=O)NO)c1  IC50 (cell growth or viability, CCK-8; 48 h): 3.5 µM
O=C(NCCOCCOCCNC(=O)c1cc2ccccc2c2ccccc12)c1cc(C(=O)N2CCNCCNCCNCC2)c(O)c(C(=O)N2CCNCCNCCNCC2)c1  IC50 (cell growth or viability, MTT; 24 h): > 1000 µM
Cc1ccc2c(Br)cc(Br)c([O-])c2n1.Cc1ccc2c(Br)cc(Br)c([O-])c2n1.[Co+2].c1cnc2c(c1)ccc1cccnc12  IC50 (cell growth or viability, MTT; 48 h): 6.17 µM
COc1ccc(CNC[C@@](O)(COCc2ccccc2)[C@@H]2CC[C@@H](C)C[C@H]2OCc2ccccc2)cc1  IC50 (cell growth or viability, MTT; 72 h): 2.38 µM
CCC(=CCc1c(O)cc2c(c1O)C(=O)CC(c1c(O)cccc1OC)O2)CC (centres unmarked)  IC50 (cell growth or viability, MTT; 48 h): > 100 µM
O=c1[nH]c(=O)n([C@H]2C[C@H](O)[C@@H](CO)O2)cc1F  IC50 (cell growth or viability): > 10 µM
C[C@@H]1CC[C@@H]([C@@](O)(CNCc2cccc(F)c2)COCc2ccccc2)[C@H](OCc2ccccc2)C1  IC50 (cell growth or viability, MTT; 72 h): 2.32 µM
Nc1nc(=O)n([C@@H]2O[C@H](CO)[C@@H](O)[C@H]2O)cc1F  IC50 (cell growth or viability): 1.11 µM
CCOC(=O)/C=C1\S/C(=N\N=C\c2cccc3cc4ccccc4nc23)N(CC(C)C)C1=O  IC50 (cell growth or viability, MTT; 48 h): 38.4 µM
C[C@@H]1CC[C@@H]([C@@](O)(CNCc2ccc(F)cc2)COCc2ccc(F)cc2)[C@H](OCc2ccc(F)cc2)C1  IC50 (cell growth or viability, MTT; 72 h): 2.72 µM
NCCCn1cc(COc2cc(C(=O)Nc3cc(OCCN)c4ccccc4n3)nc(C(=O)Nc3cc(OCCN)c4ccccc4n3)c2)nn1  IC50 (cell growth or viability, ATP luminescence; 72 h): > 40 µM
NC(=O)c1cc2c3ccccc3ccn2c1-c1ccccc1  IC50 (microtubule binding, PB-GABA-Taxol competition): < 1 µM
CCCC[N+]1=c2cc3c4cc2[O][Mn-2]1(=[C]=O)(=[C]=O)(=[C]=O)[n+]1ccc(cc1)C(=O)NCCNC(=O)c1cc[n+](cc1)[Mn-2](=[C]=O)(=[C]=O)(=[C]=O)([O]3)[N+]=4CCCC  IC50 (cell growth, MTT; 48 h, LED photolysed 1 h): 0.98 ± 0.38 µM
c1ccc(-c2ccnc3c2ccc2c(-c4ccccc4)ccnc23)cc1  IC50 (cell growth or viability, MTT; 48 h): > 50 µM
NCC1OC(OC2C(N)CC(N)C(OC3OC(CO)C(O)C(N)C3O)C2O)C(N)C(O)C1O (centres unmarked)  IC50 (cell growth or viability): > 10 µM

For quick reference, copied from above:
COc1ccc(CNC[C@@](O)(COCc2ccccc2)[C@@H]2CC[C@@H](C)C[C@H]2OCc2ccccc2)cc1  IC50 (cell growth or viability, MTT; 72 h): 2.38 µM
CCC(=CCc1c(O)cc2c(c1O)C(=O)CC(c1c(O)cccc1OC)O2)CC (centres unmarked)  IC50 (cell growth or viability, MTT; 48 h): > 100 µM
O=c1[nH]c(=O)n([C@H]2C[C@H](O)[C@@H](CO)O2)cc1F  IC50 (cell growth or viability): > 10 µM
C[C@@H]1CC[C@@H]([C@@](O)(CNCc2cccc(F)c2)COCc2ccccc2)[C@H](OCc2ccccc2)C1  IC50 (cell growth or viability, MTT; 72 h): 2.32 µM
